Measured values from different studies.
Compare with care: the assays were run in different laboratories.
gag-pol integrase: Gag-Pol polyprotein, integrase (gag-pol, Human immunodeficiency virus 1, UniProt P12497)
RELA: Transcription factor p65 (RELA, Homo sapiens, UniProt Q04206)
Sequence of UniProt Q04206 (whole entry, looked up): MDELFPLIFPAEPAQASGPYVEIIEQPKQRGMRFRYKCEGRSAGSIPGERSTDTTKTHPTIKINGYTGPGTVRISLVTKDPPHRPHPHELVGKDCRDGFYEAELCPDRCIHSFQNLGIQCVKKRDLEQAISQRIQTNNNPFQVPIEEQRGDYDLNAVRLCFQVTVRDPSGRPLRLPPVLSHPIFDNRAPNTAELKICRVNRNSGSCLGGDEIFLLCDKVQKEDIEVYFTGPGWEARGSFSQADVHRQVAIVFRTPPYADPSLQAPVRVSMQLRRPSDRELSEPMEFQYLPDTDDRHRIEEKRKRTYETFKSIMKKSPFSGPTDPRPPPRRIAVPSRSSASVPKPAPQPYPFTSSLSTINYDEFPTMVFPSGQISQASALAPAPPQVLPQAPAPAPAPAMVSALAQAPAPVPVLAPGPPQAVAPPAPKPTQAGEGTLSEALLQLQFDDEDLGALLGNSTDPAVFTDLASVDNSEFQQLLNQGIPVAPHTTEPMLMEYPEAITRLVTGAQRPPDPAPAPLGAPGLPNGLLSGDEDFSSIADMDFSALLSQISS
Sequence of UniProt P62344 (whole entry, looked up): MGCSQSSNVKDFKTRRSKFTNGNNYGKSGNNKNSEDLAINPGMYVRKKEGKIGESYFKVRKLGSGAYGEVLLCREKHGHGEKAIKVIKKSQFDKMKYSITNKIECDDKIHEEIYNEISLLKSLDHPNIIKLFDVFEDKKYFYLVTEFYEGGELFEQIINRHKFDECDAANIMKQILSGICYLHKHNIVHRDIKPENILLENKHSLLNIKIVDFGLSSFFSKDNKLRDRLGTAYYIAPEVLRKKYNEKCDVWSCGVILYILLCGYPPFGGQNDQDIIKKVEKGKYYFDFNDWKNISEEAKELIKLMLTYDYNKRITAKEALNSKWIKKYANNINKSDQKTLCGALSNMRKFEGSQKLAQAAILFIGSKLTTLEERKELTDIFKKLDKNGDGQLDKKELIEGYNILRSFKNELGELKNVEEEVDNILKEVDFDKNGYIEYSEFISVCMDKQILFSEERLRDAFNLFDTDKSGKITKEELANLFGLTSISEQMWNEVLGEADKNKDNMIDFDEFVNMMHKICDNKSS
Sequence of UniProt Q8TD43 (whole entry, looked up): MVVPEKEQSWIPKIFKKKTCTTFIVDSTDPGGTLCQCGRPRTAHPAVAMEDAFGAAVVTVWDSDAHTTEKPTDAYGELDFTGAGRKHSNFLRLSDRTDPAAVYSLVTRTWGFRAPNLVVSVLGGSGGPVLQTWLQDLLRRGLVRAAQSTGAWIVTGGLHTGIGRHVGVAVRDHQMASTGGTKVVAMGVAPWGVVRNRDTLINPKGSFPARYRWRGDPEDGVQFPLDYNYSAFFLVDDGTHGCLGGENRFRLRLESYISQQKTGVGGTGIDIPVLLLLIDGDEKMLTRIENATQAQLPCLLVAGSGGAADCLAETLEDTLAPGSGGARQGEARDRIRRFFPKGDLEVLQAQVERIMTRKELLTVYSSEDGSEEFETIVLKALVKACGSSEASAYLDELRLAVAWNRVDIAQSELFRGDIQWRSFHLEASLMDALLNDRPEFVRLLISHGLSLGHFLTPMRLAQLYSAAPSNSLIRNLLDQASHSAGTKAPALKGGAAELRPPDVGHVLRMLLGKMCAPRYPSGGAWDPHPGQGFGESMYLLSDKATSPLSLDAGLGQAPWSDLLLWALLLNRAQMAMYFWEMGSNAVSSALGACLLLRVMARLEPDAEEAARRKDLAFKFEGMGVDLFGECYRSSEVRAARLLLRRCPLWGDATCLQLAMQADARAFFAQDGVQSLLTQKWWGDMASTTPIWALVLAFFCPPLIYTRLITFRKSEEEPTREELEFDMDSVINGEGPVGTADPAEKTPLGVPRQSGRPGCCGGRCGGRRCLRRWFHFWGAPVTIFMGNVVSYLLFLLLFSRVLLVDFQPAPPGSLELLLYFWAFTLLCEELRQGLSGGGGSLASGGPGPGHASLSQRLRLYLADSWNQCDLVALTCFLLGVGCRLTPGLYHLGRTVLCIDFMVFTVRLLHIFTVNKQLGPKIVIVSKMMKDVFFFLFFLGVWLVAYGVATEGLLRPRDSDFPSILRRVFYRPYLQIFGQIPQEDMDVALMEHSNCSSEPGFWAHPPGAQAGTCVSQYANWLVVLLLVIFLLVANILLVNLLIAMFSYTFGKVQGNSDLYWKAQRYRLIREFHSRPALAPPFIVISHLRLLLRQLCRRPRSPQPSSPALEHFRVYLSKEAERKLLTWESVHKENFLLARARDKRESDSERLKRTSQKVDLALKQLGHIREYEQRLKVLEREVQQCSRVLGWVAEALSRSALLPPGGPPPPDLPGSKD
Sequence of UniProt P05181 (whole entry, looked up): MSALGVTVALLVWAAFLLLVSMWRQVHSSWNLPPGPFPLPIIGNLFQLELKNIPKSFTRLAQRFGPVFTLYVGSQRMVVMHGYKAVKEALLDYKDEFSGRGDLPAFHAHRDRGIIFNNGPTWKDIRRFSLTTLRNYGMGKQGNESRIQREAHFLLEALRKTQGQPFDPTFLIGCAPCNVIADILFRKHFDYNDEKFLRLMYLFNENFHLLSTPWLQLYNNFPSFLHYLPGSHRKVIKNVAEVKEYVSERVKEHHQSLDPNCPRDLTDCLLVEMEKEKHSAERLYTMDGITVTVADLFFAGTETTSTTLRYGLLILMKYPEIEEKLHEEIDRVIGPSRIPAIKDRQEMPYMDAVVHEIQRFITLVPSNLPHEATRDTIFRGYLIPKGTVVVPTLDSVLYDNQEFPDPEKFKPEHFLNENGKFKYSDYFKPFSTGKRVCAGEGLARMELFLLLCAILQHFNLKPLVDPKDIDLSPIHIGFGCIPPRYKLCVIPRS
Sequence of UniProt Q9NR22 (whole entry, looked up): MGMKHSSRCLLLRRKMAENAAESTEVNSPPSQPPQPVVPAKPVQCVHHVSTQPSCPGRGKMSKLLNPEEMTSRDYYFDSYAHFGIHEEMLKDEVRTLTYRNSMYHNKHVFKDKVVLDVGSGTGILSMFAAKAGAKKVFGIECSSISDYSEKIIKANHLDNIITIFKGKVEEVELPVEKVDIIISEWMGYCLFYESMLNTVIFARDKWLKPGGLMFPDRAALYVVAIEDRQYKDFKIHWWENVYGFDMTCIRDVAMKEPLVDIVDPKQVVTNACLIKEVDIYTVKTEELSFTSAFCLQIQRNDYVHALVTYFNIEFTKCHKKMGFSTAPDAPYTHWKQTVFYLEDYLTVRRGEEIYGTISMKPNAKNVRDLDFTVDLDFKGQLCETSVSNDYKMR
Sequence of UniProt P34913 (whole entry, looked up): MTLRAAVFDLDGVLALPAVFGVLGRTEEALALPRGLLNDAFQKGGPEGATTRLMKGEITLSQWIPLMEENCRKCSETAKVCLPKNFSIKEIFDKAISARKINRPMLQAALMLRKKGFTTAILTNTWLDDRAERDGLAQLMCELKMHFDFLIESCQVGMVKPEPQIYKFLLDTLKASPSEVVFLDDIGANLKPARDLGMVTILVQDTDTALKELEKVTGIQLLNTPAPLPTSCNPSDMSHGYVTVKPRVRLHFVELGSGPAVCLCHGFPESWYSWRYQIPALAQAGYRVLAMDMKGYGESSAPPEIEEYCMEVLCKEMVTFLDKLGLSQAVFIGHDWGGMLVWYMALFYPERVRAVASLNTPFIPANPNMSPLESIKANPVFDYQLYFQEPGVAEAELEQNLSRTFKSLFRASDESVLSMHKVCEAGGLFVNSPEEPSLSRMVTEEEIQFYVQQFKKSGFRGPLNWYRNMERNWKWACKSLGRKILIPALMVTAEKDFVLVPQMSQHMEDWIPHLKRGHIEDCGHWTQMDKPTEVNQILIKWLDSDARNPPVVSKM
Sequence of UniProt Q9NZ08 (whole entry, looked up): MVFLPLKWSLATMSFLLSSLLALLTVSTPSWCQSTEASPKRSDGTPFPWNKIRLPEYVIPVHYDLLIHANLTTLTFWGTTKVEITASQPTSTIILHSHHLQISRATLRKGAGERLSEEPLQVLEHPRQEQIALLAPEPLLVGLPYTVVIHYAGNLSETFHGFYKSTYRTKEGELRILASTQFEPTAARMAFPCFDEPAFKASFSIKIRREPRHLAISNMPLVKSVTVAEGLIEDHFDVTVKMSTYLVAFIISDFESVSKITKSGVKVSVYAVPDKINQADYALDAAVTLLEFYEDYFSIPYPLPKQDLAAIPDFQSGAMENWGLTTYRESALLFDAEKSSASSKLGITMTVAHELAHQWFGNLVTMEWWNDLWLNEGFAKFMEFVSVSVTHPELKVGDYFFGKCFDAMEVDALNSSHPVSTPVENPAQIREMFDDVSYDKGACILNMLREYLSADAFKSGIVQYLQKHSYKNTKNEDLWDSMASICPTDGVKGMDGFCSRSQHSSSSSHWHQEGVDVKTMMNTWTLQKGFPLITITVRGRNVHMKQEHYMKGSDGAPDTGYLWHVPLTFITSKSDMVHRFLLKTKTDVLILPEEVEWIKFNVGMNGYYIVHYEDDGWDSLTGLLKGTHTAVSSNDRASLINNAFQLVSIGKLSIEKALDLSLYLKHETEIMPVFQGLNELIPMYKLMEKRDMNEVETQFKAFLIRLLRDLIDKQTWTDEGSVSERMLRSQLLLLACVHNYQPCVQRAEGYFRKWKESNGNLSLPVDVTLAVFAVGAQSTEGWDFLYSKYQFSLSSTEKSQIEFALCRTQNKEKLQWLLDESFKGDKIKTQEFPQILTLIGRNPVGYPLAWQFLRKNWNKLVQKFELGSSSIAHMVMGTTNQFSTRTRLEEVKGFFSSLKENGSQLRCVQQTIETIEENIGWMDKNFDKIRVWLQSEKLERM
Sequence of UniProt Q99685 (whole entry, looked up): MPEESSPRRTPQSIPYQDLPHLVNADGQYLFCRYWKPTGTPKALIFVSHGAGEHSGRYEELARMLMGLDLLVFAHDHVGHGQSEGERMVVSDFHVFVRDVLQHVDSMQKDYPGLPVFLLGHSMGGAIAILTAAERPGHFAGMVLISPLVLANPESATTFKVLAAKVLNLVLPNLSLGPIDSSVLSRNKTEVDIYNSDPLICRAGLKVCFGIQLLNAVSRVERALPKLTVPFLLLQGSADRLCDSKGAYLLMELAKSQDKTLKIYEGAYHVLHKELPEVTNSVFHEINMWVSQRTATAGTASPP

O=C(Nc1cccc(-c2nnc(C3CCCCC3)o2)c1)c1ccco1 — IC50 (α-amylase; enzyme activity, inhibitor): 6.21 µM
CCOC(=O)/C(O)=C/C(=O)c1cn(Cc2ccc(F)cc2)c2c(Cl)cccc2c1=O — IC50 (gag-pol integrase; 3'-processing, inhibitor, gel-based; together with: Mg2+): > 333 µM
O=C(CCCCCCNC(=O)[C@H]1CCCN(C(=O)c2ccc(NC(=O)Nc3ccc(F)c(C(F)(F)F)c3)c(F)c2)C1)NO — IC50 (EPHX2 (Homo sapiens, UniProt P34913); enzyme activity, inhibitor, fluorescence): 0.0004 µM
C=CC(C)(O)Cc1cc2cc(-c3ccc(O)cc3O)c(=O)oc2cc1O (stereo not shown) — IC50 (RELA; NF-κB activity, inhibitor): 0.34 µM
CSc1nccc(C(=O)N[C@@H](CCC(=O)O)C(=O)N[C@@H](Cc2ccc3ccccc3c2)C(=O)N[C@@H](CC(C)C)C(=O)NC2CC2c2ccccc2)n1 (stereo partly shown) — IC50 (Adenomatous polyposis coli protein, with Asef (APC, Homo sapiens, UniProt P25054); binding, fluorescence polarization competition): 0.67 µM
CCOC(=O)[C@@H]1[C@H]2[C@H](O)[C@@H](O)[C@H](O)[C@@H](CO)[C@@H]12 — IC50 (GBA1 (Homo sapiens, UniProt P04062, R534H); enzyme activity, inhibitor; pH 5.2): > 150 µM
CCC[C@H](NC(=O)CN1C(=O)SC(=Cc2ccc3c(c2)OCO3)C1=O)C(=O)OCC — IC50 (α-amylase; enzyme activity, DNSA colorimetric): > 100 µM
O=C1C=C2CC3(O)COc4c(ccc(O)c4O)C3=C2C=C1O (stereo not shown) — IC50 (firefly luciferase; luminescence signal, luminescence counter-screen; cell-free, after ADP processing; up to 77 µM, together with: ADP 1.25 µM, ATP 11.25 µM): no inhibition
CC(=O)N1CCN(C(=O)C2(NC(=O)Nc3ccc(C)cc3)CC2)CC1 — IC50 (Endoplasmic reticulum aminopeptidase 1, open conformation (ERAP1, Homo sapiens, UniProt Q9NZ08); enzyme activity, inhibitor, fluorogenic; partial inhibition, together with: L-AMC substrate): > 200 µM
Oc1cccnc1O — IC50 (HDAC6 (Homo sapiens, UniProt Q9UBN7); enzyme activity, inhibitor, SAMDI mass spectrometry): > 10 µM
C=CC(C)(C)c1cc2c(cc1O)OC[C@H](c1cc(-c3oc4cc(O)ccc4c3C(=O)c3cc(C(C)(C)C=C)c(O)cc3O)c(O)cc1O)C2 — IC50 (RELA; NF-κB activity, inhibitor): 0.44 µM
O=P(O)(O)Oc1cc(OP(=O)(O)O)c(OP(=O)(O)O)cc1OCCOc1cc(OP(=O)(O)O)c(OP(=O)(O)O)cc1OP(=O)(O)O — IC50 (Inositol polyphosphate-5-phosphatase A (Homo sapiens, UniProt Q14642); enzyme activity, inhibitor; together with: Ins(1,4,5)P3 1.0 µM): 3.55 µM
Nc1ncnc2c1ncn2[C@@H]1O[C@H](COP(=O)(O)OP(=O)(O)C(Cl)(Cl)P(=O)(O)O)[C@@H](O)[C@H]1O — IC50 (JAK1 (Homo sapiens, UniProt P23458); enzyme activity, inhibitor, HotSpot kinase; together with: ATP 1 µM): 0.1 µM
CCc1oc2ccccc2c1C(=O)c1ccc(O)cc1 — IC50 (Cytochrome P450 2E1 (CYP2E1, Homo sapiens, UniProt P05181); p-nitrophenol hydroxylation, inhibitor; baculosomes; 10 min, with additive, together with: p-nitrophenol 100 µM): 71 µM
O=C(NNC(=O)c1ccc(CNS(=O)(=O)c2ccc(F)c(Cl)c2)cc1)c1ccccc1 — IC50 (Glutamate NMDA receptor; Grin1/Grin2a (Grin1/Grin2a, Rattus norvegicus, UniProt P35439+Q00959, M788I); ion current, two-electrode voltage clamp; oocytes): 1 µM
CC(Oc1ccc(Cl)cc1Cl)C(=O)Nc1cc(Cl)ccc1C(=O)O (stereo not shown) — IC50 (TRPM4 (Homo sapiens, UniProt Q8TD43); ion flux, inhibitor, fluorescence): 1.8 µM
O=C(O)c1cc2cc(Br)ccc2c(I)c1O — IC50 (Glutamate NMDA receptor; Grin1/Grin2c (Rattus norvegicus, UniProt P35439+Q00961); ion current, two-electrode voltage clamp; oocytes): 5.93 µM
COc1ccc2cc(-c3cn(CC4CCN(C(C)=O)CC4)c4ncnc(N)c34)ccc2c1 — IC50 (CDPK1 (Plasmodium falciparum, UniProt P62344); enzyme activity, inhibitor): > 2 µM
O=C(OC(C(F)(F)F)C(F)(F)F)N1CCC(CCCn2ccc3ccc(F)cc32)CC1 — IC50 (MGLL (Homo sapiens, UniProt Q99685); enzyme activity, inhibitor): 0.23 µM
CCOC(=O)/C(O)=C/C(=O)c1cn(Cc2ccc(F)cc2)c2ccc(Cl)cc2c1=O — IC50 (gag-pol integrase; 3'-processing, inhibitor, gel-based; together with: Mg2+): > 333 µM
CC(C)Oc1ccc(-c2c[nH]cc2C(=O)N(C)CCN)cc1 — IC50 (PRMT8 (Homo sapiens, UniProt Q9NR22); enzyme activity, scintillation proximity; together with: 3H-SAM): > 10 µM
C=C(C)CCOP(=O)(O)OP(=O)(O)OP(=O)(O)OC[C@H]1O[C@@H](n2cnc3c(N)ncnc32)[C@H](O)[C@@H]1O — IC50 (LTK (Homo sapiens, UniProt P29376); enzyme activity, inhibitor, HotSpot kinase; together with: ATP 1 µM): 1.5 µM

Repeated from above:
Oc1cccnc1O — IC50 (HDAC6 (Homo sapiens, UniProt Q9UBN7); enzyme activity, inhibitor, SAMDI mass spectrometry): > 10 µM
